Measured values collected from several papers.
A part holds a random share of what one study measured.

Study 1 — method: protein binding microarray; form: double-stranded DNA, one strand shown; matrix: in vitro; tested at: not given; baseline: not given; reading: higher = stronger binding; measurement: E-score
Target: Histone acetyltransferase KAT6A, both winged helices, GST fusion (KAT6A, Homo sapiens, UniProt Q92794, residues 1-181)
Setting: 8-mer, flanks averaged, mean of 2 arrays, mostly near background
Target sequence (chain): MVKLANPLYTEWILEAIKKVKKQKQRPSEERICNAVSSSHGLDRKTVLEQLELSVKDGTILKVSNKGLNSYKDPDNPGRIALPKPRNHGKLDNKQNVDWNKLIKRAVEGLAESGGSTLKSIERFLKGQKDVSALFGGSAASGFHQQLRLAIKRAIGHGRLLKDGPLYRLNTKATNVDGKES
Strand = AAGGCCCA; value = -0.129
Strand = AAATACAA; value = -0.00799
Strand = CCGCTAGG; value = 0.215
Strand = GTAGATAA; value = 0.086
Strand = AACGGCGG; value = 0.288
Strand = AAATTATA; value = 0.019
Strand = AAAACAGT; value = 0.0618
Strand = GGCCCTGA; value = -0.154
Strand = CTTCATAA; value = -0.0342
Strand = ACGCCCTG; value = 0.102
Strand = GCATGTTA; value = 0.136
Strand = CCTCGGCC; value = 0.103
Strand = CACATCAG; value = -0.199
Strand = ATCCCACG; value = -0.119
Strand = GAAGGACC; value = -0.0112
Strand = GTGAATTA; value = -0.00752
Strand = CATCAGGG; value = -0.127
Strand = AATTGGAA; value = -0.0357
Strand = AAGAGGTA; value = -0.14
Strand = GACTGGAC; value = 0.0416
Strand = TAGTTCGA; value = -0.129
Strand = AGACTAAC; value = -0.0586

Study 2 — method: protein-binding microarray; form: double-stranded DNA, one strand shown; matrix: in vitro; tested at: 2200 nM top; setting: 60-bp whole probe; added: salmon DNA 0.4 mg/ml; baseline: random background probes; reading: higher = stronger binding; measurement: fitted relative affinity; shared flanks, not repeated: GCCTAGCAC … GTCTTGATTCGCTTGACGCTGCTG
Target: Interferon regulatory factor 7, full length, phosphomimetic (IRF7, Homo sapiens, UniProt Q92985, residues 1-503, S471D/S472D/S475D/S476D/S477D/S483D/S484D/S487D)
Chain of UniProt Q92985 (whole entry, unmodified, looked up): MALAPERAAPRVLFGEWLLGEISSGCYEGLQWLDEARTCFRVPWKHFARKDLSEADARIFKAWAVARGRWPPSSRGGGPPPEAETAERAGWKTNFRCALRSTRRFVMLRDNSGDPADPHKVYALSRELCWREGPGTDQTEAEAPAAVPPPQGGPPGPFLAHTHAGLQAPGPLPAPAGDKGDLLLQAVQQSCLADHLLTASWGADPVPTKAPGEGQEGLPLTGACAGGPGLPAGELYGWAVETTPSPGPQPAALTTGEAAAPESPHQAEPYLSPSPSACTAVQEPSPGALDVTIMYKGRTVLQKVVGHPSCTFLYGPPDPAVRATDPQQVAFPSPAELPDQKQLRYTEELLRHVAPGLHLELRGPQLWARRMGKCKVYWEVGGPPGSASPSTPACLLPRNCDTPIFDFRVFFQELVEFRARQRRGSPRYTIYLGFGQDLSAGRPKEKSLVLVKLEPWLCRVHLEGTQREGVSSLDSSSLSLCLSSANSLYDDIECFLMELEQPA
Strand = CCACTTTCCATTTCTGTTTTTGTGCTA; value = 11.2 z-score
Strand = GACCGACTGGGTATCGGGACGTGCTAG; value = -0.425 z-score
Strand = GACTGTATCGGGACTGGGGACGTGCTA; value = -0.535 z-score
Strand = TTAGGTTTCCTTTTCCCTTAGTGCTAG; value = 5.45 z-score
Strand = TTAGGACTGGGTATCGGTTTGTGCTAG; value = 0.667 z-score
Strand = TCATGCTTGGGTCTGGGACTGTGCTAG; value = -0.121 z-score
Strand = TCAGTGTTCTTTTCTGTTACTGTGCTA; value = 1.95 z-score
Strand = GACGGTATCGCACTGGGGACGTGCTAG; value = -0.118 z-score
Strand = GACTAACTGGGGACTGGAGACGTGCTA; value = -0.194 z-score
Strand = TTAGGTATCGGGTATCGGTCAGTGCTA; value = 0.342 z-score
Strand = GATATTATATCTGTGTTATTGTGCTAG; value = 1.03 z-score
Strand = GACGGACTGCTTATCCTTACGTGCTAG; value = 0.453 z-score
Strand = GATGGTTTCGACTATCGGGACGTGCTA; value = 3.37 z-score
Strand = TTACGACTGGGTATCGGTTAGTGCTAG; value = 0.859 z-score
Strand = ACACGGCTCTAAACTCATGTAGTGCTA; value = 0.0553 z-score
Strand = TCAAAACTCGTGTTTTTCACTGTGCTA; value = 0.712 z-score
Strand = CAGTTTATTTATTTTTACATGTGCTAG; value = 1.42 z-score
Strand = GACGGTATCGTTATCCTGACGTGCTAG; value = 0.924 z-score
Strand = TTAGAACTGGGGACCGGATTAGTGCTA; value = -0.723 z-score
Strand = TTAGCTTCCCTTTTCCTTTAGTGCTAG; value = 2.99 z-score
Strand = TTAGAACTGGGGTTTCGATTAGTGCTA; value = 2.3 z-score
Strand = TTAGGTATCGGTATCAGTTAGTGCTAG; value = 0.818 z-score
Strand = GACGGTTTCGGTCTTGGGACGTGCTAG; value = 6.79 z-score
Strand = TTAAATATCAGTATCGATTAGTGCTAG; value = 0.0271 z-score
Strand = TTAGGACTGCTTTTCATTTAGTGCTAG; value = 1.48 z-score

Study 3 — method: universal PBM; form: double-stranded DNA, one strand shown; matrix: in vitro; tested at: 600 nM; reading: higher = stronger binding; measurement: E-score
Target: Sal-like protein 4, full length isoform A (SALL4, Homo sapiens, UniProt Q9UJQ4, residues 1-1053)
Chain of UniProt Q9UJQ4 (whole entry, looked up): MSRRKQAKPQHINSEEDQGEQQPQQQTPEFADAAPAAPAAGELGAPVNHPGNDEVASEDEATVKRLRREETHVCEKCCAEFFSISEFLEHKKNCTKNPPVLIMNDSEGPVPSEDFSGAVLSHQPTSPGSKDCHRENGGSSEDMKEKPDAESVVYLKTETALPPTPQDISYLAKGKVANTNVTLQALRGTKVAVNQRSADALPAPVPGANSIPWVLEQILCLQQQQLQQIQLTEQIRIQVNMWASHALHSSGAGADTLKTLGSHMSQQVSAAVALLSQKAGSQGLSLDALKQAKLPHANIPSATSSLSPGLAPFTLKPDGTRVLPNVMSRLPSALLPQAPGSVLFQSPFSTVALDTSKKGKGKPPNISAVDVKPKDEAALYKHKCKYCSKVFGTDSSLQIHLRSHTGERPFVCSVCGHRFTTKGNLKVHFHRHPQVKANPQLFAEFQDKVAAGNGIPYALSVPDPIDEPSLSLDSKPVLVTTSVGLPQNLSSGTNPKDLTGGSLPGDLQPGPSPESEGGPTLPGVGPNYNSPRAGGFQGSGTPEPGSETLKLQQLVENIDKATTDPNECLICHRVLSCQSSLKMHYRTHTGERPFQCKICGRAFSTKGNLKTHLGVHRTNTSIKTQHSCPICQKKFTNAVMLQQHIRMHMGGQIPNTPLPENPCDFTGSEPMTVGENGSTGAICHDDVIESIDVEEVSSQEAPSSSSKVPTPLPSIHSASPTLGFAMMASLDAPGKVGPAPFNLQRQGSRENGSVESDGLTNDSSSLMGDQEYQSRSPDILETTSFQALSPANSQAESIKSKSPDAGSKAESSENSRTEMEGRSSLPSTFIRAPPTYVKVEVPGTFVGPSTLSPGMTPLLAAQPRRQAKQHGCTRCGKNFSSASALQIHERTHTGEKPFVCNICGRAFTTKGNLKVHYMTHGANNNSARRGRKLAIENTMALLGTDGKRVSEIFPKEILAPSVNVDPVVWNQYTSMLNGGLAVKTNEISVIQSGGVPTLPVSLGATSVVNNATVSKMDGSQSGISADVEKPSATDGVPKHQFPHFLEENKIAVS
Setting: 8-mer, flanks averaged, mean of replicates
Strand = CTTGAACA; value = 0.0599
Strand = ATTGTTAA; value = 0.346
Strand = TAGCACGA; value = -0.0435
Strand = AGTAGCCA; value = -0.131
Strand = ACCCCCAT; value = -0.153
Strand = GGTAGCAC; value = -0.295
Strand = ACTGTCAA; value = 0.0442
Strand = AAGGAAGT; value = 0.0538
Strand = CCGTACCA; value = -0.146
Strand = CACGCTAA; value = -0.043
Strand = AAATTCGA; value = 0.188
Strand = AAAATGTC; value = 0.283
Strand = GGTGGAAC; value = -0.0522
Strand = GTTATCCA; value = 0.159
Strand = CCACAGGG; value = -0.322
Strand = GTTCACAA; value = 0.201
Strand = AGATCACA; value = -0.0204
Strand = AGGATACA; value = 0.0595
Strand = CCGAAAGA; value = -0.0914
Strand = CAATCGTG; value = 0.0156
Strand = ATTCCGCG; value = -0.243
Strand = GGGTTGCA; value = -0.0777
Strand = CCAGAAAC; value = -0.0763
Strand = GCAATAAC; value = 0.221
Strand = GCAGGCCC; value = -0.399

Study 4 — method: RNA Bind-n-Seq; form: RNA; matrix: in vitro; tested at: not given; baseline: input RNA pool; reading: higher = stronger binding; measurement: bound/input enrichment
Target: RING finger protein unkempt homolog, zinc fingers 1-6, GST-SBP tag (UNK, Homo sapiens, UniProt Q9C0B0, residues 30-357)
Setting: RNA with constant flanks, human-mouse chimeric sites, ends assumed
Shared flanks, not repeated: GGGAGUUCUACAGUCCGACGAUC … CAACAGAGGAUUGAGCAUCA
Residues (chain): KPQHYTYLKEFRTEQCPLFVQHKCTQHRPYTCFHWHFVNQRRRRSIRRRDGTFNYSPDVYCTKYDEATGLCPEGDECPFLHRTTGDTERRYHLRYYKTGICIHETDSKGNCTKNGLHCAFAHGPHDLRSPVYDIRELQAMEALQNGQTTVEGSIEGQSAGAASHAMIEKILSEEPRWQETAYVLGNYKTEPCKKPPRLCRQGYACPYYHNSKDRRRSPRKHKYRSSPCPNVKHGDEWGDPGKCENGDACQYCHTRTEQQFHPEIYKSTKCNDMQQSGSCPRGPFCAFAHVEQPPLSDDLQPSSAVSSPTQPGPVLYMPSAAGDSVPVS
Strand = AGGAGGAGGUUAAAGGGUGAGAGUGGGGUGGAAGACUGUGUCAUGGCUCUGGAGACACUGUUCAGUGUUCUGCUUUCUCUGUGCAGACUGAUGGCCCCUUACACGCCCUUUCUGACUGAG; value = 0.0732 ratio
Strand = AAAGUGGACUAUGGCGAAUACAUGGAUAAAAACAAUGUGAGGCGGCAAGCAACAACAAUCAUAGCUGAUAACAUUAUAUUUCUGAGUGACCAGACAAAAGAAAAGGCGUAGAAAGGAUGA; value = 2.39 ratio
Strand = ACCUCCCCCUCCCGCCUCACCCCACCCAAGAAAGAAAGAAAGUUUUUGGCGUUUCUUUUCCUUCCCCAUACAAAGUGAUUACAGUUUCCCCCGCAAGUGGGGCUUGAAGGGCUUGACGGA; value = 0.233 ratio
Strand = AGAUUCCCCCUCCUGAGACCUCCUCCGAAAUUGGCAUCUCUUACAGAUGCCUCAUCCCCUGUUAGUAUUUUAGUUUGGACCACCCAGCCUUGGACAAUUCCCGCCAACCAGGCAAUUUGC; value = 4.27 ratio
Strand = CUGAGGAUACCACUGAAAGAGACAUUAAAGAAUCAUUUGAGGGCUCUGUUCGUGCAAGAAUAGUCACCUGACCGGGAACUGGUUCUUCCAAAGGGUUUGGUUUUGUAGACUUUAAUAGUG; value = 0.994 ratio
Strand = UUUCUACUGCAGCAGACGAUGCUAAGAAUUAAGGAUCCUAAGAAGUCCCUGGAUUUUUAUACGAGGGUUCUUGGACUGACGCUAAUCCAGAAGCUUGACUUCCCUGCUAUGAAGUUCUCG; value = 0.141 ratio
Strand = AAUUUCCUGUCAUACUUUUUAGACAUUGCCAUAGGUAGCCUUACUACCCUGGCCACAUUCUAGGUUUGUGUUAUUUCUCAGCUAUGGAUAUGAUCAAAUGAGAACACUGCUUAACUAAUG; value = 1.52 ratio
Strand = AAACAUCUGUCUUUAAGCAUUCCAAGCGAGAAUGCUGGGGUGAUCAUUGUUGCCCAUGUGCCUUCUGACUGAGCUUUAAUGCUGUUCCAUGUUACAUCUUUCCUUCAUUGCAUAUUUGUU; value = 0.181 ratio
Strand = AAAUUUCCCCUCCUGAGACCUCCUCCGAAGUUGGAGUCUCUUACAGAUGCCUCAUCCCCUGUUAGCGUUUUAGUUUGGACCACCCAGCCUUGGACAAUUCCAGCCAACCAGGCAAUUUGC; value = 1.17 ratio
Strand = AUUGUUGAAGCGAAUCCACUCCUAGAAGCCUUUGGAAAUGCAAAGACUGUUCGCAACAAUAAUAGCAGUCGAUUUGGAAAAUUUGUAGAAAUUCAUUUCAAUGAAAAGAGUUCGGUUGUU; value = 0.355 ratio
Strand = UGGCGCCUCCCAUUUUUACUCGUGUUUUUAAGUGUAUUUUUAUAAGAUACAUGUAUUUACAAUUGAGCUUUUGUUACAUAAUGCUGAAAUGCUACUGGAGAUUAUGAAAAAUGUUUCAAU; value = 0.17 ratio
